# Assay results from different studies.
# Each line is one published result; not all experiments were run side by side. Several values in a cell are separate wells, animals, samples, runs or records. Numbers after ± are the reported error.
# Cell line: A549
Compound,assay,setting,IC50
COCC12CCC(OC)C34C5CC6(O)C(OC)C(=O)C(C5C6O)C(C(OC)C13)C4N(C)C2 (stereo not shown),"cell growth or viability, MTT",,19.4 µM
C=C(C)[C@@H]1CC[C@]2(C(=O)O)CC[C@]3(C)[C@H](CC[C@@H]4[C@@]5(C)CC[C@H](O[C@@H]6O[C@@H](C)[C@H](O)[C@@H](O)[C@H]6O)C(C)(C)[C@@H]5CC[C@]43C)[C@@H]12,"cell growth or viability, fluorescence",48 h,3.3 µM
CC(C)(O)[C@@H]1CC[C@](C)([C@H]2CC[C@]3(C)[C@@H]2CC[C@@H]2[C@@]4(C)CCC(=O)C(C)(C)[C@@H]4CC[C@]23C)O1,"cell growth or viability, SRB",,> 100 µM
CSc1nc(N)c2c(F)c(C#N)c(F)c(Cl)c2n1,"cell growth or viability, MTT",96 h,12.3 µM
Cl.[Cl][Ru-]1[S+]=C(NC2CCCCC2)N[N+]1=Cc1ccc(N(c2ccc(-c3ccsc3)cc2)c2ccc(-c3ccsc3)cc2)cc1.c1ccccc1,"cytotoxicity, MTT",24 h,> 100 µM
C[OH+][Cu-2]12[O]C(c3cn(-c4ccccc4)nc3-c3ccc(Cl)cc3)=N[N+]1=C(C)c1c(cc(C)oc1=O)[O]2 (stereo not shown),"cell growth or viability, MTT",48 h,3.84 µM and 6.9 µM
COc1cc(N(C)CCN(C)C)c(NC(=O)/C=C/c2cc(F)cc(Cl)c2)cc1Nc1nccc(-c2cn(C)c3ccccc23)n1,"cell growth or viability, MTT",72 h,0.433 µM
[Cl-].[Cl-].[Ru+2].c1ccc2nc(-c3ccc4ccccc4n3)ccc2c1.c1cnc2c(c1)ccc1cccnc12.c1cnc2c(c1)ccc1cccnc12,resazurin,"72 h, with: indigo light 450 nm, 29.1 J/cm2",6 µM
Cc1ccc(C2=NN(C3=NC(=O)C(=Cc4ccc(O)cc4)S3)C(c3ccc(F)cc3)C2)cc1 (stereo not shown),"cell growth or viability, MTT",,4.41 µM
CCN(CC)CCN1C(=O)c2ccc3c4cccc5cccc(c6ccc(c2c36)C1=O)c54,"cell growth or viability, SRB",72 h,4.1 µM
C[C@]12CC/C(=N/O)C=C1CCC1C2CC[C@]2(C)/C(=C/c3ccccn3)CCC12 (stereo partly shown),"cell growth or viability, MTT",72 h,1.8 µM
O=C(Nc1ccc(F)cc1)c1ccccc1-n1c(=O)[nH]c2ccccc2c1=O,"cell growth or viability, MTT",24 h,21 µM
CC(=O)[C@@H]1CCCN1C(=O)[C@@H]1CCCN1C(=O)[C@H](Cc1ccccc1)N(C)C(=O)OC(C)(C)C,"cell growth or viability, SRB",,2 µM
CC1=CC(c2ccccc2)=[O+][Pt-2]([NH3+])([NH3+])[O]1.O=[N+]([O-])[O-] (stereo not shown),"cell growth or viability, MTT",,7 µM
CC(=O)[O-].O.O.O.O.[Co+2].[O-]c1ccc(Br)cc1C=NCCN1CCOCC1,"cell viability, MTT",72 h,22.7 µg/mL
COCCOc1cc2ncnc(Nc3cccc(-c4cn(-c5ccccc5S(N)(=O)=O)nn4)c3)c2cc1OCCOC,"cell proliferation, CCK-8","72 h, hypoxia",16.3 µM
CN(C)c1cc[n+](CCCCC[n+]2ccc(N(C)C)cc2)cc1,"cell growth or viability, MTT",24 h,1260 µM
C=C1C(=O)[C@@]23CC[C@@H]4[C@](C)(COC(C)=O)CCC[C@@]4(CO)[C@@H]2[C@@H](O)C[C@@H]1C3,"cell growth or viability, MTT",,> 20 µM
CC(C)=CCC[C@@H](C)[C@H]1C[C@H](O)[C@@]2(C)C3=CC[C@H]4C(C)(C)[C@@H](O)CC[C@]4(C)C3=CC[C@]12C,"cell growth or viability, MTT",72 h,6.1 µM
Cc1cc(C)c([N+]#[C][Pt-]([Cl])([Cl])=[C](Nc2ccc(CN[C](Nc3c(C)cc(C)cc3C)=[Au][Cl])cc2)Nc2c(C)cc(C)cc2C)c(C)c1,cell growth or viability,,> 100 µM
Cc1cc(/C=C/C#N)cc(C)c1Oc1cc(Nc2ccc(C#N)cn2)nc2ccncc12,,48 h,> 120 µM
Cc1c2ccccc2n2c1c(-c1ccccc1)c(S(=O)(=O)c1ccccc1)c1ccccc12,"cell growth or viability, MTT",72 h,41.1 µM
Oc1ccccc1-c1nn(-c2ccccc2)[n+](-c2ccccc2)n1,"cell growth, resazurin",,180 ± 20 µM
CC(=O)[O][Pt]([Cl])([Cl])[O]C(C)=O.N.N,cell growth or viability,,32.3 µM
CC(C)=CCc1c(O)c(CC=C(C)C)c2occ(-c3ccc(O)c(O)c3)c(=O)c2c1O,"cell growth or viability, MTT",,> 100 µM
CC1=CC(C)=[N+]2C1=C(CO)c1c(C)cc(C)n1[B-]2(C)C,"cell viability, resazurin","48 h, 510 nm irradiation 2.44 J/cm2",1 ± 0.4 µM
COc1c(O)c(Br)c2oc3c(Br)c(O)c(CC=C(C)C)c(O)c3c(=O)c2c1CC=C(C)C,cell growth or viability,48 h,14.3 µM
COc1ccc(C2=NN(C3=NC(=O)/C(=C/c4ccccc4)S3)C(c3ccc(F)cc3)C2)cc1 (stereo not shown),cell growth,,> 100 µM
COc1ccc(/C=C/C2=[N+]3C(=C(CO)c4c(C)cc(/C=C/c5ccc(OC)cc5)n4[B-]3(F)F)C(C)=C2C=O)cc1,"cell growth or viability, resazurin",dark,> 100 µM
N#Cc1cccc(-c2ccc(=O)n(Cc3cccc(-c4ncc(OCC5CCN(CCCCCC(=O)Nc6cccc7c6C(=O)N(C6CCC(=O)NC6=O)C7=O)CC5)cn4)c3)n2)c1 (stereo not shown),"cell growth or viability, CCK-8",72 h,1.64 µM
C[C@H]1[C@H](C)CC[C@]2(C)CC[C@]3(C)C(=CC(=O)[C@@H]4[C@@]5(C)CC[C@@H](O)[C@](C)(C(=O)NCCNC(=O)C6CCCCC6)[C@@H]5CC[C@]43C)[C@H]12,"cell growth or viability, MTT",48 h,12.8 µM
O=C1CC(c2ccc(O)cc2)Oc2cc(O)cc([O][Ga+][O]c3cc(O)cc4c3C(=O)CC(c3ccc(O)cc3)O4)c21 (stereo not shown),"cell growth or viability, MTT",,> 200 µM
CC(=O)O[C@@H]1CC[C@@]2(C)[C@@H](CC[C@]3(C)[C@@H]2C(=O)C=C2[C@@H]4[C@@H](C)[C@H](C)CC[C@]4(C)CC[C@]23C)[C@@]1(C)C(=O)NCCNC(=O)C1CCCCC1,"cell growth or viability, MTT",48 h,10.9 µM
COc1c(O)c(Br)c2oc3c(Br)c(O)c(CCC(C)C)c(O)c3c(=O)c2c1CCC(C)C,cell growth or viability,48 h,12 µM
CC(C)=CCC1=C([O-])C(=O)c2ccccc2C1=O.O=[N+]([O-])[O-].[Cu+2].c1ccc(-c2cccc(-c3ccccn3)n2)nc1,"cell viability, MTT",24 h,> 50 µM
COc1cc(C(=O)c2[nH]c(N)nc2-c2cccs2)cc(OC)c1OC,"cell growth or viability, SRB",24 h,0.048 µM
COc1ccc(/N=N/C(=S)N2CCOCC2)cc1,"cell growth or viability, resazurin",48 h,> 50 µM
C[O][Pt-2]1([Cl])([Cl])([O]C(=O)CCC(=O)O)[NH2+]CC[N+]1(C)C,"cell growth or viability, MTT",96 h,> 250 µM
C=CC(=C)CC[C@]1(C)[C@H](C)C[C@H](O)[C@@]23C(=C[C@H](OC(=O)C(C)C)C[C@@H]12)[C@@H](OC(C)=O)O[C@H]3OC(C)=O,"cell growth or viability, SRB",,0.66 µM
[Cl-].[Cl-].[Ru+2].c1ccc(-c2ccccn2)nc1.c1ccc(-c2ccccn2)nc1.c1ccc(-c2ccccn2)nc1,resazurin,"72 h, with: indigo light 450 nm, 29.1 J/cm2",8.6 µM
COc1cc(N(C)CCN(C)C)c(NC(=O)/C=C/c2ccc(C(F)(F)F)cc2)cc1Nc1nccc(-c2cn(C)c3ccccc23)n1,"cell growth or viability, MTT",72 h,0.207 µM
C=C(CC)C(=O)c1ccc(OCC(=O)NCCNC(=O)COc2ccc(C(=O)C(=C)CC)c(Cl)c2Cl)c(Cl)c1Cl,"cell growth or viability, CCK-8",72 h,~1.2 µM
Oc1ncnc2c1sc1sc3c(O)ncnc3c12,"cell growth or viability, MTT",,4.19 µM
N#Cc1c(F)c(F)c2nc(SCc3ccccc3)nc(N)c2c1F,"cell growth or viability, MTT",96 h,24.8 µM
CCN1CCC2(CC1)C/C(=N\NC(=O)Nc1ccc(OC)cc1)c1ccccc1O2,"cell growth or viability, MTT",48 h,24.1 µM
CCCCCCCC(=O)NCCNC(=O)[C@]1(C)[C@@H]2CC[C@]3(C)[C@H](C(=O)C=C4[C@@H]5[C@@H](C)[C@H](C)CC[C@]5(C)CC[C@]43C)[C@@]2(C)CC[C@H]1OC(C)=O,"cell growth or viability, MTT",48 h,12.2 µM
CC(=O)Nc1ccc(/C=C/c2nc3ccc(Br)cc3nc2/C=C/c2ccc(NC(C)=O)cc2)cc1,"cell growth or viability, MTT",72 h,9.32 µM
Cn1c2ccc(Cl)c(=O)c-2nc2ccccc21,"cell growth or viability, CCK-8",72 h,0.76 µM
CC(C)c1cccc(C(C)C)c1[N+]#[C][Pd-]([Cl])([Cl])=[C](Nc1ccc(CN[C](Nc2c(C(C)C)cccc2C(C)C)=[Au][Cl])cc1)Nc1c(C(C)C)cccc1C(C)C,cell growth or viability,,> 100 µM
COc1cc(/C=C/c2cc(C)n[nH]2)ccc1O,"cell growth or viability, MTT",48 h,> 100 µM
CCn1[c]([Au-]([Cl])([Cl])[Cl])[n+](CC)c2ccc(C(=O)OC)cc21,"cell growth or viability, crystal violet",72 h,19.3 µM
CC[C@H](C)[C@H](N)C(=O)Nc1ccc2nc(Cc3c[nH]c4ccccc34)[nH]c2c1,"cell growth or viability, ATP luminescence",72 h,16.2 µM
O=C1c2cccc3cccc(c23)C12NC(Cc1ccc(O)cc1)C([N+](=O)[O-])C2c1ccccc1 (stereo not shown),"cell growth or viability, MTT",48 h,40 µM
Cc1cc(C)c([N+]#[C][Pt-]([Cl])([Cl])=[C](Nc2cccc(CN[C](Nc3c(C)cc(C)cc3C)=[Au][Cl])c2)Nc2c(C)cc(C)cc2C)c(C)c1,cell growth or viability,,> 100 µM
CC(=O)O[C@@H]1CC[C@@]2(C)[C@@H](CC[C@]3(C)[C@@H]2C(=O)C=C2[C@@H]4[C@@H](C)[C@H](C)CC[C@]4(C)CC[C@]23C)[C@@]1(C)C(=O)NCCNC(=O)CCCCBr,"cell growth or viability, MTT",48 h,9.36 µM
